Results from different studies.
Organism: Klebsiella pneumoniae

For `CC[C@H](C)[C@H](NC(=O)[C@@H](CCCNC(=N)N)NC(=O)[C@H](CCCNC(=N)N)NC(=O)[C@H](CC(C)C)NC(=O)[C@H](Cc1c[nH]c2ccccc12)NC(=O)[C@H](CCCNC(=N)N)NC(=O)[C@@H]1CCCN1C(=O)[C@H](CCCNC(=N)N)NC(=O)[C@@H]1CCCN1C(=O)[C@H](CC(C)C)NC(=O)[C@H](Cc1ccc(O)cc1)NC(=O)[C@@H]1CCCN1C(=O)[C@@H]1CCCN1C(=O)[C@H](CCCCN)NC(=O)[C@H](CC(=O)O)NC(=O)[C@@H](N)C(C)C)C(=O)N[C@@H](Cc1ccc(O)cc1)C(=O)N[C@@H](CC(N)=O)C(=O)N[C@H](CCCNC(=N)N)C(N)=O`, the MIC was 4 µg/mL (broth microdilution; DSM 681; 18 h, 37 °C, 25% MHB2).
`CCn1c(-c2ccc(F)cc2)c(-c2ccc(F)cc2)n(Cc2ccccc2)c1=[Se]` gave an MIC of greater than 40 µM (broth microdilution; carbapenem-resistant BAA-1705; 24 h).
`COc1ccc2ccc(O)c(/C=N/[C@H]3CCCC[C@H]3/N=C/c3cc(F)ccc3O)c2c1` has an MIC of greater than 40 µM (bacterial growth, broth microdilution; carbapenem-resistant clinical isolate).
For `N=C(N)NCCC[C@@H]1NC(=O)[C@H](CCCNC(=N)N)NC(=O)[C@@H](C(c2ccccc2)c2ccccc2)NC(=O)[C@H](Cc2c[nH]c3ccccc23)NC(=O)[C@@H](C(c2ccccc2)c2ccccc2)NC(=O)[C@@H](CCCNC(=N)N)NC(=O)[C@@H](CCCNC(=N)N)NC1=O`, the MIC was 32 µg/mL (ATCC BAA1705, KPC-2 carbapenem-resistant).
`CC1(C)[C@H](NC(=O)/C(=N\OCC(=O)N2CCC(C(=O)O)C2)c2nsc(N)n2)C(=O)N1OS(=O)(=O)O` (stereo partly shown) has an MIC of greater than 64 µg/mL (agar dilution; 2146, NDM-1).
`COc1ccc2ccc(O)c(/C=N/[C@H]3CCCC[C@H]3/N=C/c3ccc(F)cc3O)c2c1` gave an MIC of greater than 40 µM (bacterial growth, broth microdilution; carbapenem-resistant).
The MIC of `CCCCCCCC(=O)N[C@@H](CCN)C(=O)N[C@H](C(=O)N[C@@H](CCN)C(=O)N[C@H]1CCNC(=O)[C@H]([C@@H](C)O)NC(=O)[C@H](CCN)NC(=O)[C@H](CCN)NC(=O)[C@H](CC(C)C)NC(=O)[C@@H](Cc2ccc(Cl)cc2)NC(=O)[C@H](CCN)NC1=O)[C@@H](C)O` is reported as 0.5 to 1 µg/mL (broth microdilution; ATCC 13883, colistin-susceptible).
With `C#CCNC(=O)C(C)(C)O/N=C(\C(=O)N[C@@H]1C(=O)N(S(=O)(=O)O)[C@H]1C)c1csc(N)n1` the MIC was 4 µg/mL (agar dilution; 09-20, NDM-1).
For `C=C1NC(=O)C2C[S+]([O-])CC3NC(=O)C(CSC(C)C(NC(=S)C(Cc4cnc[nH]4)NC(=O)c4csc(C(C)NC(C)=O)n4)C(=O)N[C@H](CC(C)C(=O)NC(=O)CC(C(=O)O)NC(=O)C(C)NC3=O)C(=O)N2)NC(=O)[C@@H]2CCCN2C(=O)[C@@H](CC(C)C)NC1=O` (stereo partly shown), the MIC was greater than 32 µg/mL (bacterial growth; ATCC 12657).
With `CC[C@H](C)[C@H](NC(=O)[C@@H](CCCNC(=N)N)NC(=O)[C@H](CCCNC(=N)N)NC(=O)[C@@H]1CCCN1C(=O)[C@@H]1CCCN1C(=O)[C@H](CCCNC(=N)N)NC(=O)[C@@H]1CCCN1C(=O)[C@H](CCCNC(=N)N)NC(=O)[C@@H]1CCCN1C(=O)[C@H](CC(C)C)NC(=O)[C@H](Cc1ccc(O)cc1)NC(=O)[C@@H]1CCCN1C(=O)[C@@H]1CCCN1C(=O)[C@H](CCCCN)NC(=O)[C@H](CC(=O)O)NC(=O)[C@@H](N)C(C)C)C(=O)N[C@@H](Cc1cc(I)c(O)c(I)c1)C(=O)N[C@@H](CC(N)=O)C(=O)N[C@H](CCCNC(=N)N)C(N)=O` the MIC was 16 µg/mL (broth microdilution; DSM 681; 18 h, 37 °C, 25% MHB2).
